Experimental data gathered from unrelated publications.
Numbered parts are unrelated; each lists some results of a single study. Several values in a cell are separate wells, animals, samples, runs or records.
Sequence of UniProt P45984 (whole entry, looked up): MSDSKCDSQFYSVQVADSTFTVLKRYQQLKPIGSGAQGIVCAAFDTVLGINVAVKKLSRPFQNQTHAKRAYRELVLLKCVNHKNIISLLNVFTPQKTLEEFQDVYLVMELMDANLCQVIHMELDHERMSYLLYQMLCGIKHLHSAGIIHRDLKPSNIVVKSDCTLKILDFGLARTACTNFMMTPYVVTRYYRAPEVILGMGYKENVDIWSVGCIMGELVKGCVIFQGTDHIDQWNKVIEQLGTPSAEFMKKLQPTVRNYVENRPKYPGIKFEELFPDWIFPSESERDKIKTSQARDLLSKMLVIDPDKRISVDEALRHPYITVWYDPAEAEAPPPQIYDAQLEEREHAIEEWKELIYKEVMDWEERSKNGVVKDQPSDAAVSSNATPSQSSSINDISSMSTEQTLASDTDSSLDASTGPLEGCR
Sequence of UniProt O95747 (whole entry, looked up): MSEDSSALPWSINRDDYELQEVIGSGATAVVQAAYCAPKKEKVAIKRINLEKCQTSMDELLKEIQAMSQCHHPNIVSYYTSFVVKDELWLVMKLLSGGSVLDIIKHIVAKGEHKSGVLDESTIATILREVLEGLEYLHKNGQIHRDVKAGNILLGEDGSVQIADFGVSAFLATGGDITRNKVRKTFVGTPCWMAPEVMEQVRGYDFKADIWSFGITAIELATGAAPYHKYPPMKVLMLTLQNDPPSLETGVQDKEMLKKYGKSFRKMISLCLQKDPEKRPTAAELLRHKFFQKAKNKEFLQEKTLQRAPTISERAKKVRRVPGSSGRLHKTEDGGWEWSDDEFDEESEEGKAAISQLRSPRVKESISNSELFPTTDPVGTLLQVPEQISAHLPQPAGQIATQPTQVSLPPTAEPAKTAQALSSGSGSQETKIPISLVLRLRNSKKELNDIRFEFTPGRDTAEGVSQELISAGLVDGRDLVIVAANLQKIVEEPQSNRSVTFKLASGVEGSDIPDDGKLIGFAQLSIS
Sequence of UniProt O96013 (whole entry, looked up): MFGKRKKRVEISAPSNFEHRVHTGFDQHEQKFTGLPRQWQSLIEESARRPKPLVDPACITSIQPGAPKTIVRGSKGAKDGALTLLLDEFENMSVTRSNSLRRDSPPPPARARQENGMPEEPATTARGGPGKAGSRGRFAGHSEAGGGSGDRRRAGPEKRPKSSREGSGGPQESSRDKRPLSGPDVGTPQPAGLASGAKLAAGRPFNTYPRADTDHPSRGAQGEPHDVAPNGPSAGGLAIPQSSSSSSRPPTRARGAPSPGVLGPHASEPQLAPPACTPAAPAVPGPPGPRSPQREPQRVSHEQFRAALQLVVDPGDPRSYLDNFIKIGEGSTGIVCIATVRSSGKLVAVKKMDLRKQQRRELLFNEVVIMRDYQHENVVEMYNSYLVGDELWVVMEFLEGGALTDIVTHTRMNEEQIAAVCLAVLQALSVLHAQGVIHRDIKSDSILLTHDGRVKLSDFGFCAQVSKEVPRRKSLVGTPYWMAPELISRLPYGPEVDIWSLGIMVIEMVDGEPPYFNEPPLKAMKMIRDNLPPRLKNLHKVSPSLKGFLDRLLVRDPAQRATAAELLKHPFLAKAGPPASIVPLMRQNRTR
Sequence of UniProt P48736 (whole entry, looked up): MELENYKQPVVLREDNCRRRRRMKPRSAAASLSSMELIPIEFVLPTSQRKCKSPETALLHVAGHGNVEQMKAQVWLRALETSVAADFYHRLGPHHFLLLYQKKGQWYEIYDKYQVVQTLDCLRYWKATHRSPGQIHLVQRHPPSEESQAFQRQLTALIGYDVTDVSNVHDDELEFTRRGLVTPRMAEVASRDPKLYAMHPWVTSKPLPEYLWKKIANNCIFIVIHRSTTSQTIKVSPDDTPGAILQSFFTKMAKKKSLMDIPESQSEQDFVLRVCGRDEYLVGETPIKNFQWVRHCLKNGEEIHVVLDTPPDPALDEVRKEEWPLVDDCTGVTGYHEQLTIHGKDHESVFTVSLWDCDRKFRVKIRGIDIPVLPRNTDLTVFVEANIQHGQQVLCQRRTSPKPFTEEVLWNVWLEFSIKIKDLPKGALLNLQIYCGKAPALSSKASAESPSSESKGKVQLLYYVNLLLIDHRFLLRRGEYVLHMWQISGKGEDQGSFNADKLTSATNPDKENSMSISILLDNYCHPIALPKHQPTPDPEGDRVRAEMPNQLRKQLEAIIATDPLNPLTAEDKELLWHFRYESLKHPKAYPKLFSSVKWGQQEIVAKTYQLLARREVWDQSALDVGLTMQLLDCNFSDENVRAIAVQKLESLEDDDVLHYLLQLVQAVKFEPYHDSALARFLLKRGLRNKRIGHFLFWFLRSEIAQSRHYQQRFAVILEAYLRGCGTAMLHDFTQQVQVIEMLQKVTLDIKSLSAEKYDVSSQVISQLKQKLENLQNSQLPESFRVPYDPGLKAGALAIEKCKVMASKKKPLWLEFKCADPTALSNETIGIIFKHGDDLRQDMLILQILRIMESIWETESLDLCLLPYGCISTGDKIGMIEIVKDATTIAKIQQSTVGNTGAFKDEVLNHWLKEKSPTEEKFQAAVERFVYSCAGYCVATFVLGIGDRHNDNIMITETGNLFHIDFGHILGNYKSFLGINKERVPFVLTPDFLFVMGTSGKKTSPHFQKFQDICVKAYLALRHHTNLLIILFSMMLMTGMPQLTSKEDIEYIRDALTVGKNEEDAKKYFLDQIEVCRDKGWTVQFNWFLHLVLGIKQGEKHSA
Sequence of UniProt O75582 (whole entry, looked up): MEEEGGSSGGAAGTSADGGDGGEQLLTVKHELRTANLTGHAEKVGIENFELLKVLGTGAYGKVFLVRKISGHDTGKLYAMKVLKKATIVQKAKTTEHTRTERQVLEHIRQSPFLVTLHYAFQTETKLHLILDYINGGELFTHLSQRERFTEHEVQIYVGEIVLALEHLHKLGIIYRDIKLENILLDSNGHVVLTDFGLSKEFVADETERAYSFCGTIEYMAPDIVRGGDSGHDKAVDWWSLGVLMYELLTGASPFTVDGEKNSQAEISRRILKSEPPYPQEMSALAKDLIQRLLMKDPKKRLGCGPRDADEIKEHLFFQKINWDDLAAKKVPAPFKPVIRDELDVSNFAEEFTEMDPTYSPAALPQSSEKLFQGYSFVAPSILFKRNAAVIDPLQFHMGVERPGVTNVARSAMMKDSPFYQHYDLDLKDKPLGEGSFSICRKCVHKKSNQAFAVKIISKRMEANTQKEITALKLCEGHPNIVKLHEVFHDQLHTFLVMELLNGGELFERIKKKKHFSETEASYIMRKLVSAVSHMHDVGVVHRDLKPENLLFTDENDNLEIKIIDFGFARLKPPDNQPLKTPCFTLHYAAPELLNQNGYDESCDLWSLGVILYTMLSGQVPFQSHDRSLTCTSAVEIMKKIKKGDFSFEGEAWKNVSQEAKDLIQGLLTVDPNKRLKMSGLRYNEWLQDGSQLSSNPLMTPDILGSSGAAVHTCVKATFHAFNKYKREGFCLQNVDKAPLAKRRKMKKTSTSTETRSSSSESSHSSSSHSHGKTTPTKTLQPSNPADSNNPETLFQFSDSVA
Sequence of UniProt O95819 (whole entry, looked up): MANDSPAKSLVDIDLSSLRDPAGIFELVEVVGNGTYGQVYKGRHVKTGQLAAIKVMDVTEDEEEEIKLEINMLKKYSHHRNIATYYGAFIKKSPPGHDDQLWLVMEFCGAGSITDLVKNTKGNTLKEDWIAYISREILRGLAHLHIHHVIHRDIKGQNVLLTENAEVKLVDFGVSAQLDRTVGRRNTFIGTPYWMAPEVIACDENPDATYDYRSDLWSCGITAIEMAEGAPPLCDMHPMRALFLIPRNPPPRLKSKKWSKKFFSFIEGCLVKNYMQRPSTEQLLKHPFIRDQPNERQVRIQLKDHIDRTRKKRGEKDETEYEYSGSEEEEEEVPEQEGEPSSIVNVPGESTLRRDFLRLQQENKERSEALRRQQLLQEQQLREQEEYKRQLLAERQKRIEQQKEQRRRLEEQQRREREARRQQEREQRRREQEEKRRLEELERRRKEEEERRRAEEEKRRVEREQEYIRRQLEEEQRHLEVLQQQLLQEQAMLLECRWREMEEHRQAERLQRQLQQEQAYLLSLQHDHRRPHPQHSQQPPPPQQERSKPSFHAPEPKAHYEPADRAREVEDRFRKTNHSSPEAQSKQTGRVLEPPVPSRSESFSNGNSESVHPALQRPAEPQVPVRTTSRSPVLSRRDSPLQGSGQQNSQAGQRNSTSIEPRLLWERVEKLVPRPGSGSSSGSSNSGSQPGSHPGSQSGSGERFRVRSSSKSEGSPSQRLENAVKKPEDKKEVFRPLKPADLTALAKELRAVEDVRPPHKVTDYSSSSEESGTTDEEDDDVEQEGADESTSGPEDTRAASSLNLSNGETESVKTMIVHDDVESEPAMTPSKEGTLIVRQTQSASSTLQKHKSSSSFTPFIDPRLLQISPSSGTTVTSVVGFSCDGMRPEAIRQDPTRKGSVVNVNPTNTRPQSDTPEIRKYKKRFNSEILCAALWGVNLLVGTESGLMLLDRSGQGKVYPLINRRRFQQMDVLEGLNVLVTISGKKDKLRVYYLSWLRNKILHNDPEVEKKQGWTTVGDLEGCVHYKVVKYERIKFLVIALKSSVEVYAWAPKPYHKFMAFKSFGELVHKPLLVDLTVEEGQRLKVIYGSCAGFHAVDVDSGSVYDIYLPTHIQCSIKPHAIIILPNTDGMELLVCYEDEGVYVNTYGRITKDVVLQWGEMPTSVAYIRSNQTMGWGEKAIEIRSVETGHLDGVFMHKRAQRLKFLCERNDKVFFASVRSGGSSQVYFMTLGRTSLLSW
Sequence of UniProt Q96PN8 (whole entry, looked up): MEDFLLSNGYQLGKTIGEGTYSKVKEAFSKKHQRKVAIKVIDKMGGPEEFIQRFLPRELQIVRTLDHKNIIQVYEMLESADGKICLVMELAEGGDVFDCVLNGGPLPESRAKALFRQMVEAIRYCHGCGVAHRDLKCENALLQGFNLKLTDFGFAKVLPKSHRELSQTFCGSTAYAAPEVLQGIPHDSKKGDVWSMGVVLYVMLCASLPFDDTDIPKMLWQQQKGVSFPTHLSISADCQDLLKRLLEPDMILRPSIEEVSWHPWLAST

Set 1
Compound: Cc1cc(Nc2nc(-c3ccccc3)nc3ccccc23)n[nH]1
Observed: enzyme activity
Mode: inhibitor
Concentration: 0.5 µM
Relative to: control
target | remaining activity [%]
CHEK2 (Homo sapiens, UniProt O96017) | 31.3
Tyrosine-protein kinase Lyn, isoform B (LYN, Homo sapiens, UniProt P07948) | 88.7
Cyclin-dependent kinase 4, with cyclin D1 (CDK4, Homo sapiens, UniProt P11802) | 100
MAP3K3 (Homo sapiens, UniProt Q99759) | 82.9
GRK3 (Homo sapiens, UniProt P35626) | 106
STK11 (Homo sapiens, UniProt Q15831) | 69
MAPK9 (Homo sapiens, UniProt P45984) | 92.4
STK10 (Homo sapiens, UniProt O94804) | 56.2
DAPK1 (Homo sapiens, UniProt P53355) | 39.1
PRKACA (Homo sapiens, UniProt P17612) | 97.2
OXSR1 (Homo sapiens, UniProt O95747) | 98.1
IKBKB (Homo sapiens, UniProt O14920) | 69.8
Protein kinase C beta type, isoform beta-I (PRKCB, Homo sapiens, UniProt P05771) | 99.9
TGFBR2 (Homo sapiens, UniProt P37173) | 116
NEK2 (Homo sapiens, UniProt P51955) | 99.3
cGMP-dependent protein kinase 1, isoform beta (PRKG1, Homo sapiens, UniProt Q13976) | 94.9
TGFBR1 (Homo sapiens, UniProt P36897) | 97.1

Set 2
SMILES: COc1cc(-c2cn(C3CCc4ccccc4N(CC(F)(F)F)C3=O)nn2)ccc1-n1ccc(C)n1 (stereo not drawn)
Observed: cell-free assay
Technique: competition with immobilised ligand
Concentration: 1 µM
target | remaining binding [%]
ITK (Homo sapiens, UniProt Q08881) | 100
TBK1 (Homo sapiens, UniProt Q9UHD2) | 88
TIE1 (Homo sapiens, UniProt P35590) | 100
MAP3K9 (Homo sapiens, UniProt P80192) | 91
Tyrosine-protein kinase ABL1, phosphorylated (ABL1, Homo sapiens, UniProt P00519, T315I) | 70
Tyrosine-protein kinase ABL1, non-phosphorylated (ABL1, Homo sapiens, UniProt P00519, Q252H) | 90
OXSR1 (Homo sapiens, UniProt O95747) | 91
STK26 (Homo sapiens, UniProt Q9P289) | 83
MAP3K2 (Homo sapiens, UniProt Q9Y2U5) | 100
TSSK3 (Homo sapiens, UniProt Q96PN8) | 100
PIK3CG (Homo sapiens, UniProt P48736) | 67
MAPK9 (Homo sapiens, UniProt P45984) | 64
MAP4K4 (Homo sapiens, UniProt O95819) | 100
PAK4 (Homo sapiens, UniProt O96013) | 100
RET (Homo sapiens, UniProt P07949, V804L) | 100
Ribosomal protein S6 kinase alpha-5, N-terminal kinase domain (RPS6KA5, Homo sapiens, UniProt O75582) | 74

Set 3
Cell line: HaCaT
Concentration: 100 µM
Time: 36 h
SMILES | viability [%]
CCC(C)n1ncn(-c2ccc(N3CCN(c4ccc(OC[C@H]5CO[C@](Cn6cncn6)(c6ccc(Cl)cc6Cl)O5)cc4)CC3)cc2)c1=O (mixture of isomers) | 81.8
CCOC(=O)n1ccn(C)c1=S | 87.5
c1ccc2c(c1)CCCC2C1=NCCN1 (stereo not drawn) | 43.8
CCC(=O)NCC[C@@H]1CCc2ccc3c(c21)CCO3 | 87
O=C(CCCl)NCc1ccccc1 | 89.5

Mixed results
SMILES | cell line | technique | concentration | time | relative to | measurement | result
O=C(COc1ccc(Cl)cc1)NC1CCC(NC(=O)COc2ccc(Cl)cc2)CC1 (stereo not drawn) | L444P/L444P Gaucher fibroblasts | 4-MUG hydrolysis in lysate | 0.2 µM | 72 h | vehicle | enzyme activity | 123% and 124% and 112% and 116% and 107% and 120%

Excerpt of the above (set 2):
target | remaining binding [%]
TIE1 (Homo sapiens, UniProt P35590) | 100
MAP3K9 (Homo sapiens, UniProt P80192) | 91
Tyrosine-protein kinase ABL1, phosphorylated (ABL1, Homo sapiens, UniProt P00519, T315I) | 70
